Published values gathered from unrelated publications.
A part holds a random share of what one study measured.
Sequence of UniProt Q15746 (whole entry, looked up): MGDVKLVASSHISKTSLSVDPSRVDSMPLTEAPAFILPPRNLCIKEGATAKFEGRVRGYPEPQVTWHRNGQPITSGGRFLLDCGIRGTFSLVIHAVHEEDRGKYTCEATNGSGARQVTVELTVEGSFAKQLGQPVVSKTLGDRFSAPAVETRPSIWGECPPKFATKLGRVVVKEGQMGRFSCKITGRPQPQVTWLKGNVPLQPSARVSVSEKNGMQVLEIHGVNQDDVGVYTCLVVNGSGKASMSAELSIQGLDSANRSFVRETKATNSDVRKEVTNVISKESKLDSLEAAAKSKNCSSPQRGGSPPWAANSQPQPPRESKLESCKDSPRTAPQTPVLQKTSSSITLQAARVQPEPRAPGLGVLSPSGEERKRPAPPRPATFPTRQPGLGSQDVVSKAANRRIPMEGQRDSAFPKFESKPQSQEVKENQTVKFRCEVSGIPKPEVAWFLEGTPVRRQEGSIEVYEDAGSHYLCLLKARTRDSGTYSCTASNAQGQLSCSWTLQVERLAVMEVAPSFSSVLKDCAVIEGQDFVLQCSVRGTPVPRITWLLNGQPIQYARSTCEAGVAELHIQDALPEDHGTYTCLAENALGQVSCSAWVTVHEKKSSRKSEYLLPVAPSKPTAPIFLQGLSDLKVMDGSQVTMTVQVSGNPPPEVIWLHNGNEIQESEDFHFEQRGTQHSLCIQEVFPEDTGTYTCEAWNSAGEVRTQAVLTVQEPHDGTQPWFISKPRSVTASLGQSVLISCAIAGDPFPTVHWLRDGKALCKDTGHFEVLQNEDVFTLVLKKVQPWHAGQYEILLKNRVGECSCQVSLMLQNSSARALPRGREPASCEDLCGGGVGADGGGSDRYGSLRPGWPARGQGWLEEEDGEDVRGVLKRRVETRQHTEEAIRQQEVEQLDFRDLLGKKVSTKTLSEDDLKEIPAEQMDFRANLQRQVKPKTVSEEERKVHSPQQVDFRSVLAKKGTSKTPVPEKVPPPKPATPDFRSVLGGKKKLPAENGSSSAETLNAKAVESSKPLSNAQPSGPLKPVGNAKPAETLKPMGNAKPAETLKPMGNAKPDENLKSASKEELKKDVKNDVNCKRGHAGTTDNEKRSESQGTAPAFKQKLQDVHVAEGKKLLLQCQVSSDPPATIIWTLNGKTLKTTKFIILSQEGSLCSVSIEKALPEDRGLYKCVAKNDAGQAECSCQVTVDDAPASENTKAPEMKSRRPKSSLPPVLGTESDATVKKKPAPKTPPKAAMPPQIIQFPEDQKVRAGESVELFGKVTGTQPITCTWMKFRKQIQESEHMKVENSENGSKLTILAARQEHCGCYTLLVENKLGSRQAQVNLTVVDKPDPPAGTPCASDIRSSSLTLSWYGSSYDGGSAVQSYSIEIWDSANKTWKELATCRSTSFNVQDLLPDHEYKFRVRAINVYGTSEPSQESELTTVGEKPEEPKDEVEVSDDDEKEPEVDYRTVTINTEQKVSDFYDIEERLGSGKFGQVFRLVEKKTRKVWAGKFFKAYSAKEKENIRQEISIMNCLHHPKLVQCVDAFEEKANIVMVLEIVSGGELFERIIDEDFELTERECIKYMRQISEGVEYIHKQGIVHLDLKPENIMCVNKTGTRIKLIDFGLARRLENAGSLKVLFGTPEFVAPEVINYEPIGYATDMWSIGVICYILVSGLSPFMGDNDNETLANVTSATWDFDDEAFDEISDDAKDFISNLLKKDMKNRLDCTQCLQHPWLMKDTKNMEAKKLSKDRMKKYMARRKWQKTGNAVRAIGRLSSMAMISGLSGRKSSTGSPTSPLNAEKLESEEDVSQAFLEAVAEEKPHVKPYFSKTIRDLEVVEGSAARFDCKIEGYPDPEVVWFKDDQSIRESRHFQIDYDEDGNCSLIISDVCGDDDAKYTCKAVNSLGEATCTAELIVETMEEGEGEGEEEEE
Sequence of UniProt Q9Y243 (whole entry, looked up): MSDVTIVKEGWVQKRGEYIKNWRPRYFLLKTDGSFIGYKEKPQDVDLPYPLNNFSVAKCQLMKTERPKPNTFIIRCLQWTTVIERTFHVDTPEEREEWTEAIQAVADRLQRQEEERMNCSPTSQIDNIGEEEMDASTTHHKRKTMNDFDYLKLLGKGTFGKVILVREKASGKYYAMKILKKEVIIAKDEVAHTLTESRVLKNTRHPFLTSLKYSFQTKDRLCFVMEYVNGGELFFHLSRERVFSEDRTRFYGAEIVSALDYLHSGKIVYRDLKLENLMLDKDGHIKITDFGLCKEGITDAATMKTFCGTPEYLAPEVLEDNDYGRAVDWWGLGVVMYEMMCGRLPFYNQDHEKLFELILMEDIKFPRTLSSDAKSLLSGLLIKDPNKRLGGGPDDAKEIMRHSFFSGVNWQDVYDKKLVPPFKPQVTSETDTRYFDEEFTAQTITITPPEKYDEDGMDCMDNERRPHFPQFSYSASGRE
Sequence of UniProt Q9H3Y6 (whole entry, looked up): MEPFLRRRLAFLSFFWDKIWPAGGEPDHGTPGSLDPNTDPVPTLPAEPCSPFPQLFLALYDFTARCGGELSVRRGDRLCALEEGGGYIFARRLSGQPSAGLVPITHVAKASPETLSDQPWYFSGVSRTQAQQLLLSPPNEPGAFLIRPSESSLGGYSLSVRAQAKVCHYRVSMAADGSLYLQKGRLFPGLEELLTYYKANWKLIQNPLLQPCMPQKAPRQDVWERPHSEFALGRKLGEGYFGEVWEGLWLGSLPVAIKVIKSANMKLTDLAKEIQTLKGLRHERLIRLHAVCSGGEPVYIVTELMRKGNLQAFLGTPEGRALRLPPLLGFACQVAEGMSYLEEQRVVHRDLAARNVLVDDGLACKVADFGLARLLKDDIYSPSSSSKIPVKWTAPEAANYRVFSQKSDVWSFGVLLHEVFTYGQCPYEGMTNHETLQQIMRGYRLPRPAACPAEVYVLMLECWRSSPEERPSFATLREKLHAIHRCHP
Sequence of UniProt Q9Y2H1 (whole entry, looked up): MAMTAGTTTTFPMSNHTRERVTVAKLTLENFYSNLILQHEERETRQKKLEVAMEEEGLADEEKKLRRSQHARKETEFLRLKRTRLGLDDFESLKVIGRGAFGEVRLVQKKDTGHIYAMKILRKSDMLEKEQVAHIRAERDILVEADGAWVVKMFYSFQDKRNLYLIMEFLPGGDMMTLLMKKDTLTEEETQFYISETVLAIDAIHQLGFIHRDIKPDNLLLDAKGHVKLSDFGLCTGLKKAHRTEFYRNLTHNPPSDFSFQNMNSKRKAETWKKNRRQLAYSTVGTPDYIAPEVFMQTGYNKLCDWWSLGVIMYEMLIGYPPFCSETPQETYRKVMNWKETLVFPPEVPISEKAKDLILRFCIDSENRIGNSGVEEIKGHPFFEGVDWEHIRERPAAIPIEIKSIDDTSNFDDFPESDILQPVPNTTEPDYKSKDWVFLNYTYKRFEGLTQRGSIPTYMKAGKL
Sequence of UniProt P10721 (whole entry, unmodified, looked up): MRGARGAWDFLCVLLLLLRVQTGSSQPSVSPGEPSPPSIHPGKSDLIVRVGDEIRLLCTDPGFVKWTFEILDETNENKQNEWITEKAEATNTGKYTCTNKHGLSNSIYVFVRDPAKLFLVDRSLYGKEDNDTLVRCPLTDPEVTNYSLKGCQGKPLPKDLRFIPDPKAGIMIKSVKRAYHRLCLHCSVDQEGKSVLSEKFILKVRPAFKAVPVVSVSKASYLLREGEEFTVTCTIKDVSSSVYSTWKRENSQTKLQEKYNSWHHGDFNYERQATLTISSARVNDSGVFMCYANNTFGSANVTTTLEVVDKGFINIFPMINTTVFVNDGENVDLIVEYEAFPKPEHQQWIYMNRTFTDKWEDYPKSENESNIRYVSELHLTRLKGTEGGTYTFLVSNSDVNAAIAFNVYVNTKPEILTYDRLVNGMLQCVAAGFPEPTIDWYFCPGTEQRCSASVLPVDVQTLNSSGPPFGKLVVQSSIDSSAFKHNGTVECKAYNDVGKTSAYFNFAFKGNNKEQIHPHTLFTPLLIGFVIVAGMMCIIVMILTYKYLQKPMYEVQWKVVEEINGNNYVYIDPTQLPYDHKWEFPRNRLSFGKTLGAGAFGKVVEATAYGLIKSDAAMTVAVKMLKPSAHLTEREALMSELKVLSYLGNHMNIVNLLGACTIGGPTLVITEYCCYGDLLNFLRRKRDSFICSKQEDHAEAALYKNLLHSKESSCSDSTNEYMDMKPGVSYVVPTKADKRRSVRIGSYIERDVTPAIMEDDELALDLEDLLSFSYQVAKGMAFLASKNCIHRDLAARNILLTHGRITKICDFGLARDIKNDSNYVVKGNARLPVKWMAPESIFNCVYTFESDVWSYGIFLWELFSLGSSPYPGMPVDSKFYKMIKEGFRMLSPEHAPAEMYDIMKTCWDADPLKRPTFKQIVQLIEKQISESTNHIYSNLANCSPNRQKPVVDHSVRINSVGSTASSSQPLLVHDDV
Sequence of UniProt Q9NWZ3 (whole entry, looked up): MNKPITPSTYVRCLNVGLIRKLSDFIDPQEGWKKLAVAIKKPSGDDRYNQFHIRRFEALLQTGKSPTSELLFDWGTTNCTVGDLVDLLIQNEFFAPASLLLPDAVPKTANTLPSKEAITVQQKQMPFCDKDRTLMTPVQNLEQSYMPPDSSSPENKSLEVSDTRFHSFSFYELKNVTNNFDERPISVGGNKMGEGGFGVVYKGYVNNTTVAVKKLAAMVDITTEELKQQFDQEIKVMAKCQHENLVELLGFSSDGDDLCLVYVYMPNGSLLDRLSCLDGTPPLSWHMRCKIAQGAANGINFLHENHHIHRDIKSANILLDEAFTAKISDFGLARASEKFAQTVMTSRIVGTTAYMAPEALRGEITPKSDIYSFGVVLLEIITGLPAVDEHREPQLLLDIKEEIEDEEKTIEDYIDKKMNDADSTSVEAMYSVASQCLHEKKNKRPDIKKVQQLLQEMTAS

Study 1
Structure (SMILES): CCOC(=O)c1cc2cc(-c3cc(C(=O)NCc4ccc(C(=O)O)cc4)nn3C)ccc2[nH]1
Tested at: 0.1 µM
| target | read-out | method | remaining binding |
| --- | --- | --- | --- |
| Mitogen-activated protein kinase kinase kinase 11 (MAP3K11, Homo sapiens, UniProt Q16584) | cell-free assay | competition with immobilised ligand | 88% |
| Serine/threonine-protein kinase Nek4 (NEK4, Homo sapiens, UniProt P51957) | cell-free assay | competition with immobilised ligand | 81% |
| Mast/stem cell growth factor receptor Kit (KIT, Homo sapiens, UniProt P10721, L576P) | cell-free assay | competition with immobilised ligand | 100% |
| Cyclin-dependent kinase-like 1 (CDKL1, Homo sapiens, UniProt Q00532) | cell-free assay | competition with immobilised ligand | 77% |
| Receptor tyrosine-protein kinase erbB-2 (ERBB2, Homo sapiens, UniProt P04626) | cell-free assay | competition with immobilised ligand | 99% |
| Non-receptor tyrosine-protein kinase TYK2, JH2 (TYK2, Homo sapiens, UniProt P29597) | cell-free assay | competition with immobilised ligand | 91% |
| Cyclin-G-associated kinase (GAK, Homo sapiens, UniProt O14976) | cell-free assay | competition with immobilised ligand | 85% |
| RAC-alpha serine/threonine-protein kinase (AKT1, Homo sapiens, UniProt P31749) | cell-free assay | competition with immobilised ligand | 100% |
| Serine/threonine-protein kinase SIK1 (SIK1, Homo sapiens, UniProt P57059) |  | competition binding | 97% |
| Tyrosine-protein kinase Srms (SRMS, Homo sapiens, UniProt Q9H3Y6) | cell-free assay | competition with immobilised ligand | 90% |
| Myosin light chain kinase, smooth muscle (MYLK, Homo sapiens, UniProt Q15746) | cell-free assay | competition with immobilised ligand | 100% |
| Tyrosine-protein kinase JAK1, JH2 (JAK1, Homo sapiens, UniProt P23458) | cell-free assay | competition with immobilised ligand | 94% |
| G protein-coupled receptor kinase 3 (GRK3, Homo sapiens, UniProt P35626) | cell-free assay | competition with immobilised ligand | 96% |
| Serine/threonine-protein kinase 17B (STK17B, Homo sapiens, UniProt O94768) | cell-free assay | competition with immobilised ligand | 100% |
| SRSF protein kinase 3 (SRPK3, Homo sapiens, UniProt Q9UPE1) | cell-free assay | competition with immobilised ligand | 100% |
| Tyrosine-protein kinase ABL1, non-phosphorylated (ABL1, Homo sapiens, UniProt P00519, T315I) | cell-free assay | competition with immobilised ligand | 83% |
| Mitogen-activated protein kinase kinase kinase kinase 1 (MAP4K1, Homo sapiens, UniProt Q92918) | cell-free assay | competition with immobilised ligand | 100% |
| Serine/threonine-protein kinase 16 (STK16, Homo sapiens, UniProt O75716) | cell-free assay | competition with immobilised ligand | 78% |
| Discoidin domain-containing receptor 2 (DDR2, Homo sapiens, UniProt Q16832) | cell-free assay | competition with immobilised ligand | 76% |
| Interleukin-1 receptor-associated kinase 3 (IRAK3, Homo sapiens, UniProt Q9Y616) | cell-free assay | competition with immobilised ligand | 100% |
| Homeodomain-interacting protein kinase 3 (HIPK3, Homo sapiens, UniProt Q9H422) | cell-free assay | competition with immobilised ligand | 81% |
| Calcium/calmodulin-dependent protein kinase type II subunit beta (CAMK2B, Homo sapiens, UniProt Q13554) | cell-free assay | competition with immobilised ligand | 96% |
| Dual specificity tyrosine-phosphorylation-regulated kinase 1B (DYRK1B, Homo sapiens, UniProt Q9Y463) | cell-free assay | competition with immobilised ligand | 100% |
| Calcium/calmodulin-dependent protein kinase kinase 2 (CAMKK2, Homo sapiens, UniProt Q96RR4) | cell-free assay | competition with immobilised ligand | 95% |
| RAC-gamma serine/threonine-protein kinase (AKT3, Homo sapiens, UniProt Q9Y243) | cell-free assay | competition with immobilised ligand | 86% |

Study 2
Structure (SMILES): CC(C)S(=O)(=O)c1ccc2nccc(Nc3ccc4sc(C5CCCC5)nc4c3)c2c1
Read-out: enzyme activity
Mode: inhibitor
Tested at: 1 µM
| target | activity vs control |
| --- | --- |
| Calcium/calmodulin-dependent protein kinase type IV (CAMK4, Homo sapiens, UniProt Q16566) | 100% |
| Serine/threonine-protein kinase TAO1 (TAOK1, Homo sapiens, UniProt Q7L7X3) | 99% |
| Serine/threonine-protein kinase 38-like (STK38L, Homo sapiens, UniProt Q9Y2H1) | 110% |
| STE20-like serine/threonine-protein kinase (SLK, Homo sapiens, UniProt Q9H2G2) | 92% |
| cAMP-dependent protein kinase catalytic subunit beta (PRKACB, Homo sapiens, UniProt P22694) | 99.5% |
| Testis-specific serine/threonine-protein kinase 4 (TSSK4, Homo sapiens, UniProt Q6SA08) | 93% |
| Interleukin-1 receptor-associated kinase 4 (IRAK4, Homo sapiens, UniProt Q9NWZ3) | 93% |
| cGMP-dependent protein kinase 2 (PRKG2, Homo sapiens, UniProt Q13237) | 118% |

Study 3
Method: logD(dd/w) and ALogP
Notes: JT method
| Compound | lipophilic permeability efficiency |
| --- | --- |
| CC(C)C[C@@H]1NC(=O)[C@H](CC(C)C)NC(=O)[C@@H](C(C)C)NC(=O)[C@H](C(C)C)NC(=O)[C@H](C)NC(=O)[C@@H](CC(C)C)NC(=O)[C@H](C)NC1=O | 2.09 |
| CC(C)C[C@@H]1NC(=O)[C@@H](C)NC(=O)[C@@H](CC(C)C)NC(=O)[C@@H](C(C)C)NC(=O)[C@H](C(C)C)NC(=O)[C@H](CC(C)C)NC(=O)[C@@H](CC(C)C)NC1=O | 2.6 |
| CC(C)C[C@@H]1NC(=O)[C@H](C)NC(=O)[C@@H](CC(C)C)NC(=O)[C@@H](CC(C)C)NC(=O)[C@@H](Cc2cscn2)NC(=O)[C@H](CC(C)C)NC(=O)[C@@H](CC(C)C)NC1=O | 2.27 |
| CC(C)C[C@@H]1NC(=O)[C@H](Cc2cscn2)NC(=O)[C@@H](CC(C)C)NC(=O)[C@H](C(C)C)NC(=O)[C@H](CC(C)C)NC(=O)[C@@H](CC(C)C)NC(=O)[C@H](CC(C)C)NC1=O | 2.39 |
| CC(C)C[C@@H]1NC(=O)[C@H](CC(C)C)NC(=O)[C@@H](CC(C)C)NC(=O)[C@@H](CC(C)C)NC(=O)[C@H](C(C)C)NC(=O)[C@H](CC(C)C)NC(=O)[C@@H](CC(C)C)NC1=O | 3.1 |
| CC(C)C[C@@H]1NC(=O)[C@H](CC(C)C)NC(=O)[C@@H](CC(C)C)NC(=O)[C@H](C(C)C)NC(=O)[C@@H](Cc2cscn2)NC(=O)[C@@H](CC(C)C)NC(=O)[C@H](C)NC1=O | 2.23 |
| CC(C)C[C@@H]1NC(=O)[C@H](CCC(=O)N2CCCC2)NC(=O)[C@H](CC(C)C)NC(=O)[C@@H](CCC(=O)N2CCCC2)NC(=O)[C@H](CC(C)C)NC(=O)[C@@H](CC(C)C)NC(=O)[C@H](CC(C)C)NC1=O | 2.13 |
| CC(C)C[C@@H]1NC(=O)[C@H](Cc2cscn2)NC(=O)[C@@H](CC(C)C)NC(=O)[C@H](CC(C)C)NC(=O)[C@@H](Cc2cscn2)NC(=O)[C@H](CC(C)C)NC(=O)[C@@H](CC(C)C)NC1=O | 1.69 |
| CC(C)C[C@@H]1NC(=O)[C@H](C)NC(=O)[C@H](CC(C)C)NC(=O)[C@@H](CC(C)C)NC(=O)[C@H](CC(C)C)NC(=O)[C@H](C)NC(=O)[C@H](CCC(=O)N2CCCC2)NC1=O | 1.38 |

Study 4
Target: Diamine acetyltransferase 1 (Homo sapiens, UniProt P21673)
Mode: inhibitor
Tested at: 10 µM
Relative to: control
Target sequence (P21673 1-171): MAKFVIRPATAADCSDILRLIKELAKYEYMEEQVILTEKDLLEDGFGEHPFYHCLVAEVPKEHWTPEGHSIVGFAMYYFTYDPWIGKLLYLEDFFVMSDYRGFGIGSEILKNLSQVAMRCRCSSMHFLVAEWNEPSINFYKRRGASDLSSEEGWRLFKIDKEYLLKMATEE
| SMILES | remaining activity [%] |
| --- | --- |
| CC1=CCC(C(C)C)=CC1 | 103 |
| Nc1nc2ncc(CNc3ccc(C(=O)N[C@@H](CCC(=O)O)C(=O)O)cc3)nc2c(=O)[nH]1 | 101 |
| COC(=O)c1ccc(O)cc1 | 92.6 |
| C[C@@H]1CC[C@@H]2C(C(=O)O)=CO[C@@H](O[C@@H]3O[C@H](CO)[C@@H](O)[C@H](O)[C@H]3O)[C@H]12 | 103 |
| COc1cc(CC(=O)O)ccc1O | 105 |
| CCCCC/C=C/C(=O)CCc1ccc(O)c(OC)c1 | 112 |
| O=C[C@H](O)[C@@H](O)[C@H](O[C@H]1O[C@H](CO)[C@@H](O[C@H]2O[C@H](CO)[C@@H](O)[C@H](O)[C@H]2O)[C@H](O)[C@H]1O)[C@H](O)CO | 97.6 |
| CCOC(=O)c1ccc(O)cc1 | 92 |
| COc1c2ccoc2c(OC)c2oc(=O)ccc12 | 94.2 |
| O=C(O)/C=C/c1ccccc1 | 84.2 |
| C[C@@H]1O[C@@H](O[C@H]2[C@H](OC(=O)[C@]34CCC(C)(C)C[C@H]3C3=CC[C@@H]5[C@@]6(C)C[C@H](O)[C@H](O[C@@H]7O[C@H](CO)[C@@H](O)[C@H](O)[C@H]7O)[C@](C)(CO)[C@@H]6CC[C@@]5(C)[C@]3(C)C[C@H]4O)OC[C@H](O)[C@@H]2O)[C@H](O)[C@H](O)[C@H]1O[C@@H]1OC[C@@H](O)[C@H](O[C@@H]2OC[C@](O)(CO)[C@H]2O)[C@H]1O | 97.2 |

For quick reference, copied from above (study 1):
| target | read-out | method | remaining binding |
| --- | --- | --- | --- |
| Serine/threonine-protein kinase 16 (STK16, Homo sapiens, UniProt O75716) | cell-free assay | competition with immobilised ligand | 78% |
| SRSF protein kinase 3 (SRPK3, Homo sapiens, UniProt Q9UPE1) | cell-free assay | competition with immobilised ligand | 100% |
| Serine/threonine-protein kinase 17B (STK17B, Homo sapiens, UniProt O94768) | cell-free assay | competition with immobilised ligand | 100% |
| Homeodomain-interacting protein kinase 3 (HIPK3, Homo sapiens, UniProt Q9H422) | cell-free assay | competition with immobilised ligand | 81% |
| Mast/stem cell growth factor receptor Kit (KIT, Homo sapiens, UniProt P10721, L576P) | cell-free assay | competition with immobilised ligand | 100% |
| Cyclin-dependent kinase-like 1 (CDKL1, Homo sapiens, UniProt Q00532) | cell-free assay | competition with immobilised ligand | 77% |
| Tyrosine-protein kinase Srms (SRMS, Homo sapiens, UniProt Q9H3Y6) | cell-free assay | competition with immobilised ligand | 90% |
